Assay results gathered from unrelated publications.
Numbered parts are unrelated; each lists some results of a single study. Changes are numbered by the printed parent chain.

Series 1
Target: ABI1, truncated, D143A, DHFR fusion (Arabidopsis thaliana)
Technique: DHFR PCA, deep sequencing
Matrix: yeast
Setting: methotrexate growth selection, single substitutions
Together with: (+)-ABA 200 µM
Reference: wild-type fitted maximum
Reading: higher = stronger binding
Endpoint: relative binding score
Starting sequence: PYL1, truncated, DHFR fusion (Arabidopsis thaliana); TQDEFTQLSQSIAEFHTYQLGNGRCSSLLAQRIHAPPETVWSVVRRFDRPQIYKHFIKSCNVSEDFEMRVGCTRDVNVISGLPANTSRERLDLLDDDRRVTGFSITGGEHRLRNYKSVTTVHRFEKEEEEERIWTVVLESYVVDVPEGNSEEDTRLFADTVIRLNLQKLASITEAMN
F66M: 95.9%
S27W: 38.8%
E130D: 110%
D75F: 103%
F47W: 83%
V145M: 77%
T86Q: 93.6%
V143A: 76%
T160V: 75.5%
S26P: 22.9%
E129R: 100%
F157S: -0.19%
C60I: 84.9%
P37F: 47.9%
G148T: 83.2%
Q7S: 100%

Series 2
Target: CCND2, cyclin fold, Cln2 fusion (human)
Technique: yeast growth competition, sequencing
Matrix: yeast
Setting: weak parent motif
Reference: not given
Reading: higher = stronger binding
Endpoint: normalised enrichment score
Starting sequence: CENPC docking peptide (human); VKTKKRLNFDDKV; partner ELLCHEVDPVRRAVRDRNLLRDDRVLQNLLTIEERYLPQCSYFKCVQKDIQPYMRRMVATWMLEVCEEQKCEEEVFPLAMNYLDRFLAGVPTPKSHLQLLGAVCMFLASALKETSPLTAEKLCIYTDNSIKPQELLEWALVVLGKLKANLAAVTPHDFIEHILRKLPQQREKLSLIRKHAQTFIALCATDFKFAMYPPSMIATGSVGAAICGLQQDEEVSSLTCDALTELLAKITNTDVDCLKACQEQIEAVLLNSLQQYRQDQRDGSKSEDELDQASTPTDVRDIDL
K5A: 0.313
V1A: 0.421
L7A: 0.212
K5A L7A: 0.283
K5R: 1.42
D11A: 0.111
K12A: 0.35
T3A: 0.0916
F9L: -0.0502
F9A: -0.0794

Series 3
Target: Sal-like protein 4, full length isoform A (SALL4, Homo sapiens, UniProt Q9UJQ4, residues 1-1053)
UniProt Q9UJQ4, sequence (whole entry, looked up): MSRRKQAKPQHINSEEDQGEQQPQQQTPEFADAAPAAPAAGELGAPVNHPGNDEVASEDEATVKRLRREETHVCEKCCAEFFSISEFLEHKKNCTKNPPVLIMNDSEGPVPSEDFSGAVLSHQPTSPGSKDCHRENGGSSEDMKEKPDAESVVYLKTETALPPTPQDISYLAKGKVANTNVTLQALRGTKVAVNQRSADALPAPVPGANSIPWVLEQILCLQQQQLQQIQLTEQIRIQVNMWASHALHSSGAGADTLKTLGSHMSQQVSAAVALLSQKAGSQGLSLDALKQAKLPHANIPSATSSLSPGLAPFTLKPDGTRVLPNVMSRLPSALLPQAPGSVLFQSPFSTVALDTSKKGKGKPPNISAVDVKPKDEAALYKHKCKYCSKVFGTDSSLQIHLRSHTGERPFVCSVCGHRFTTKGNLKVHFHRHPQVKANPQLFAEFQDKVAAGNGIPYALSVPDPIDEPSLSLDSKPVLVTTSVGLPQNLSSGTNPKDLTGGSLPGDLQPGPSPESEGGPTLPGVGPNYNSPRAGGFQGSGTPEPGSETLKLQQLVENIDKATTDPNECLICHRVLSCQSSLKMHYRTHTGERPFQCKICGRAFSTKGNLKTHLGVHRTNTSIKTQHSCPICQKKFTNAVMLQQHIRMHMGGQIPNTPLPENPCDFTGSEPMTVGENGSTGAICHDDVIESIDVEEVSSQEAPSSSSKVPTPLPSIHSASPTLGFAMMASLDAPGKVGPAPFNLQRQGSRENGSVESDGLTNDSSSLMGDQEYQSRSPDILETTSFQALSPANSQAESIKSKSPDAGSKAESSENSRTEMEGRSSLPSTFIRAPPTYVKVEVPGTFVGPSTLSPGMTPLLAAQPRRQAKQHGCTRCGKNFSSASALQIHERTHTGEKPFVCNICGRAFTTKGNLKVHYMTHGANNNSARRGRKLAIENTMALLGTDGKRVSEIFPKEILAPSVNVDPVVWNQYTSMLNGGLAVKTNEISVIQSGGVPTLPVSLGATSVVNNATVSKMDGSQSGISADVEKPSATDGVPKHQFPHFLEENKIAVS
Technique: universal PBM
Molecule type: double-stranded DNA, one strand shown
Matrix: in vitro
Tested at: 600 nM
Setting: 8-mer, flanks averaged, mean of replicates
Reading: higher = stronger binding
Endpoint: E-score
CCATATCG: 0.149
ATACTATG: 0.254
CATTGCCA: 0.0677
ACACTGAT: 0.0476
CAGGCCAC: -0.3
ACGGGACG: -0.287
ACACAAAA: 0.234
CGATAGCC: -0.105
AGTTTGGC: -0.13
GGGTGTCA: -0.143
ATGTACGC: 0.0787
ACTTACAG: 0.0996
CGCCCCAA: -0.203
AGAGTCAG: -0.149
GATTGACA: 0.147
AGCCCGTC: -0.362

Series 4
Target: Ras GTPase-activating protein-binding protein 1, RRM domain (G3BP1, Homo sapiens, UniProt Q13283)
UniProt Q13283, sequence (whole entry, looked up): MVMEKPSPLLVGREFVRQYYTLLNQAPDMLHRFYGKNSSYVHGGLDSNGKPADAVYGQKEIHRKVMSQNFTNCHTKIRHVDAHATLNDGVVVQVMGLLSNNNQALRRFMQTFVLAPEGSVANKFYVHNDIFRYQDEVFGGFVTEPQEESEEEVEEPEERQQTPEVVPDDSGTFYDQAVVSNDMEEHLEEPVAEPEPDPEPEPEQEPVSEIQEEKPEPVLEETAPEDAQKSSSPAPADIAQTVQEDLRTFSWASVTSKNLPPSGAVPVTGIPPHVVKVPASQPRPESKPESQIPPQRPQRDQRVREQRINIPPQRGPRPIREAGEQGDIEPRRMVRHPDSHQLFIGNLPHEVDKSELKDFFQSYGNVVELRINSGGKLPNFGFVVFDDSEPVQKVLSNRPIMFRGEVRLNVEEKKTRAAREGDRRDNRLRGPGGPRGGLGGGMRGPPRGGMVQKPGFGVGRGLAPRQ
Technique: RNA Bind-n-Seq
Molecule type: RNA
Matrix: in vitro
Tested at: 1 µM
Setting: whole 134-nt RNA, ends assumed
Together with: 150 mM KCl
Reference: input library
Reading: higher = stronger binding
Endpoint: log2 enrichment
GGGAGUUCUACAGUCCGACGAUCGUCCUGUGCUACACAUCGUAUGUACCGAAUCGGGGUUUUUGGGUUUUUGGUUUUUGGGAAAGUAUUAUGUUACGCCGUUCGGAUCUGCACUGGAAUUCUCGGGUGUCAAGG: -0.268
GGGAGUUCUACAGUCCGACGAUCAAGUCCUGUGCUACACAUCGUAUGUACCGAAUCAAAUUUUUAAAUUUAAAUUUAAAAAAGUAUUAUGUUACGCCGUUCGGAUCUGCACUUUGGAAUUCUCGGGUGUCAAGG: -0.575
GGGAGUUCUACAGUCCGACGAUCAAGUCCUGUGCUACACAUCGUAUGUACCGAAUCGGGAGGGAAAAAAAGGGUUUGGGAAAGUAUUAUGUUACGCCGUUCGGAUCUGCACUUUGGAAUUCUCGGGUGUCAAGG: 0.656
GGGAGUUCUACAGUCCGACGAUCUUCAAGGCCAUGAAGGACCUGUUUAUGCGGUGCAUGCUGUUUACCAGAGGAGGACAUCAGAUCCUGCAUUAUGUACACUGAUCGUUUCUGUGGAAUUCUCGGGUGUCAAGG: -0.305
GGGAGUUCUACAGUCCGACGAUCCAAGUCCUGUGCUACACAUCGUAUGUACCGAAUCAAACCCAAACCCAAACCCAAAAAAGUAUUAUGUUACGCCGUUCGGAUCUGCACUUCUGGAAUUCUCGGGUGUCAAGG: -0.257
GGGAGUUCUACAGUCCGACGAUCCCUCAAGUCCUGUGCUACACAUCGUAUGUACCGAAUCGGUGGGUGGGGUGGGAAAGUAUUAUGUUACGCCGUUCGGAUCUGCACUUCCAGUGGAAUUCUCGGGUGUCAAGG: 0.204
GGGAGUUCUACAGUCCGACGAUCUCCCGGGCGCUAGCCCACCUCCCACCCGCCUCUUGGCUCCUCUCCUCUAGGCCGUCGCUUUCGGGUUCUCUCAUCGCUUCGUCGUUCGCCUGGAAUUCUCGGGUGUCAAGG: -0.256
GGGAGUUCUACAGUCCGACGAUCUCCUGUGCUACACAUCGUAUGUACCGAAUCAAACCCCCCCAAACCCCCCCAAACCCAAAAAAGUAUUAUGUUACGCCGUUCGGAUCUGCAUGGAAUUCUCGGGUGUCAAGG: -0.083
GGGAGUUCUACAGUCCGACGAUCAGUCCUGUGCUACACAUCGUAUGUACCGAAUCGGGGAGGGGUUUGGGGUUUUUGGGGAAAGUAUUAUGUUACGCCGUUCGGAUCUGCACUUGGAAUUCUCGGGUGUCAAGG: 1.15
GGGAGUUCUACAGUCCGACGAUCCUCAAGUCCUGUGCUACACAUCGUAUGUACCGAAUCGGGAAGGGAAGGGAAGGAAAGUAUUAUGUUACGCCGUUCGGAUCUGCACUUCCAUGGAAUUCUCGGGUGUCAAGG: -0.283

Series 5
Target: ATF3, bZIP domain (human)
Technique: DHFR protein complementation
Matrix: yeast
Setting: single substitutions, most at no-binding floor
Reference: wild-type JUN-FOS pair
Reading: higher = stronger binding
Endpoint: binding fitness
Starting sequence: JUN, bZIP domain (human); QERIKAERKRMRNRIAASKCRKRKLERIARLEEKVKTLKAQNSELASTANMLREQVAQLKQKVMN; partner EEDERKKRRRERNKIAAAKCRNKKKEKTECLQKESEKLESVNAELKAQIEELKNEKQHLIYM
L52G: -1.29 natural log
S43C: -0.133 natural log
K36P: -1.28 natural log
T48H: -0.164 natural log
E44M: -0.191 natural log
V56E: -1.49 natural log
K34E: -0.321 natural log
T37S: -0.118 natural log
I28R: -0.0744 natural log
K39P: -1.27 natural log
S47W: -0.156 natural log
Q55A: -0.248 natural log
L45A: -1 natural log
L52A: -1.26 natural log
A49N: -1.04 natural log
T48F: -0.207 natural log
S43A: 0.0541 natural log
E32P: -0.895 natural log
E44Q: -0.14 natural log
A29R: -0.157 natural log
Q55V: -0.286 natural log
E54Q: -0.386 natural log
A49K: -0.266 natural log
T48G: -0.914 natural log

Further values, each from its own experiment
PhoQ, residues 284 288 289 292 302 303 NLALSC  fold induction (PhoP, residues 12 14 15 18 19 IFFTR (Escherichia coli, UniProt P23836); Sort-seq, measured: YFP reporter; E. coli; PhoQ-PhoP variant library, together with: 10 µM Mg2+; reference: high Mg2+ state, higher = stronger signaling): 2.24
